Results gathered from unrelated publications.
Each numbered part is a random draw from the data of one study; scales do not carry over between parts.

Series 1 — method: universal PBM; form: double-stranded DNA, one strand shown; sample: in vitro; concentration: 600 nM; direction: higher = stronger binding
Target: Sal-like protein 4, full length isoform A (SALL4, Homo sapiens, UniProt Q9UJQ4, residues 1-1053)
UniProt Q9UJQ4, sequence (whole entry, looked up): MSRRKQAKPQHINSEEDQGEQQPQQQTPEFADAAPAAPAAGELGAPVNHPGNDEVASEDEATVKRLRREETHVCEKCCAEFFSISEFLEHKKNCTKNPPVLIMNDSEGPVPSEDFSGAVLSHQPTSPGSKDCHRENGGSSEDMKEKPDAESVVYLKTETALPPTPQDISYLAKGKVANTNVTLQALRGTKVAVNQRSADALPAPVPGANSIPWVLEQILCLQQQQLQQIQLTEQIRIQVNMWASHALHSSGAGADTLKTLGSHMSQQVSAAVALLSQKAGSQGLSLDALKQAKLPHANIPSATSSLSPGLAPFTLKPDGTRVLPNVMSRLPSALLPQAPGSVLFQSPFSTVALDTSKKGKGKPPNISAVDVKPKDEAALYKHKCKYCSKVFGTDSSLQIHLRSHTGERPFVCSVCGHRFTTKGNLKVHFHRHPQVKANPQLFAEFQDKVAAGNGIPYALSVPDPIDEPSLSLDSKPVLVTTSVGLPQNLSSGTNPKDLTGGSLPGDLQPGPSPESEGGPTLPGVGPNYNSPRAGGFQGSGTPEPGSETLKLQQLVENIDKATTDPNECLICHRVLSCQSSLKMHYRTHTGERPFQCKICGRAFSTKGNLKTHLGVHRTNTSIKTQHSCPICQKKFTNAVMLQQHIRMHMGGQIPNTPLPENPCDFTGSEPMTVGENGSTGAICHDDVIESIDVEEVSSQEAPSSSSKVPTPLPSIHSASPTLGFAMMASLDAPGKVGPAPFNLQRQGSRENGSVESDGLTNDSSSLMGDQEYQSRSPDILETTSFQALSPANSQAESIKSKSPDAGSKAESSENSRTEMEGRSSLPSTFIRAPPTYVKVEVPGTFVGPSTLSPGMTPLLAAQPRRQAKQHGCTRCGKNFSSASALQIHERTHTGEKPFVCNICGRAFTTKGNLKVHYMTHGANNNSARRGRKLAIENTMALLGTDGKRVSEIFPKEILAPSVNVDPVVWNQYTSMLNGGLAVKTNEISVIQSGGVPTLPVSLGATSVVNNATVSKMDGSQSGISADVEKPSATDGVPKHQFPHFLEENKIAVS
Notes: 8-mer, flanks averaged, mean of replicates
Strand | E-score
ATTTGGGC | -0.0642
TAGCACAA | 0.0469
CACTCCTG | -0.0884
TGTTGCAA | 0.152
AGCCGCGG | -0.286
CCCGAAGG | -0.17
CAAAGTCA | 0.0863
GCGACCCC | -0.244
GCGCACGA | -0.233
ATACTGAG | 0.126
CCGATTCC | -0.197
AGTAATCG | 0.0768
CCTAAAAG | -0.191
AATACGGT | -0.00198
AAATCTTC | 0.14
CTGAAGCA | -0.0136
AAACGACC | -0.0685
CGGTACTC | -0.108
GCCTCTTA | -0.0932
CCCCATCG | -0.277
CGATCGAA | -0.0176
TACGACCA | -0.0277
ACAGCACA | 0.0559
ACGACAAT | 0.0872

Series 2 — method: RNAcompete; form: RNA; sample: in vitro; concentration: 20 nM; notes: 7-mer, probes averaged, single round; reference: mean of 7-mers; direction: higher = stronger binding
Target: PABPC1L2, full length, GST fusion (mouse, UniProt A0ABA7IW68)
Residues (chain): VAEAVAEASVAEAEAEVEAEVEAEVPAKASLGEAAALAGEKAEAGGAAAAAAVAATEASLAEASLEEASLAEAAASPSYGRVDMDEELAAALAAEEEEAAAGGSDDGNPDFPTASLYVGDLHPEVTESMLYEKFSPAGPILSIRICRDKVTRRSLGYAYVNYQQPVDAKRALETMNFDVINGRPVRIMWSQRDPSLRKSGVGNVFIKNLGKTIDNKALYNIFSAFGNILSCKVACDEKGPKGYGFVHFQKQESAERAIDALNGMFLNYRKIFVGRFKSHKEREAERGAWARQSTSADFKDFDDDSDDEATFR
Strand | 7-mer Z-score
AGGACCA | 0.18
AAGUUAU | 0.253
GGAUCAU | -0.0482
CUCCCGG | -0.345
GUAAUAU | -0.141
AAUUAGU | 0.106
UCCGUCC | -0.505
CGCCCGU | -0.45
UUUCUAC | -0.313
UAUUUAA | 0.0315
GAGGAAA | 0.785
GGAACCA | 0.2
GAGGGAG | 0.26
AACAGGG | 1.44
GGGGAAU | 0.256
GAAAUCU | 0.202

Series 3 — method: RNA Bind-n-Seq; form: RNA; sample: in vitro; concentration: 100 nM; reference: input RNA pool; direction: higher = stronger binding
Target: RING finger protein unkempt homolog, zinc fingers 1-6, SBP tag (UNK, Homo sapiens, UniProt Q9C0B0, residues 30-357)
UniProt Q9C0B0, sequence (30-357, looked up): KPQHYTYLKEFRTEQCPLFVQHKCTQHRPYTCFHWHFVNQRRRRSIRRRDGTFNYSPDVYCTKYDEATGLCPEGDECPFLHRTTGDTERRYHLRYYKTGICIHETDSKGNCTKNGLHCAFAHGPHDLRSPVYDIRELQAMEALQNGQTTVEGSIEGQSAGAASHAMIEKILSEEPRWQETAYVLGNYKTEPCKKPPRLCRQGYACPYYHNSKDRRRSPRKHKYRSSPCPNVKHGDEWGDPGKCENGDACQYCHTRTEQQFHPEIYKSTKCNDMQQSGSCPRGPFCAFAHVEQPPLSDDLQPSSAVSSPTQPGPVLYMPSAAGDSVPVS
Notes: RNA with constant flanks, vertebrate orthologous sites, ends assumed
Strand | bound/input enrichment
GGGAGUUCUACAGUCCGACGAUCGGGCAGCCGGUGGGGGAAUCCCAUGCUCUGGCCUUGCCUCCCCUCCCUGCCACCCGCUCCUAGUUAUUUUUUUUUUAACCACCAUGUGAUUAAGGUCGGCACUGCCUCCCCCGACCCACUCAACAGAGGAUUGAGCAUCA | 2.26 ratio
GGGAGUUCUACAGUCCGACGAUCCACAAUCUCUACUUAAGUAGGUUUUUACAUACCAAGUUAAGCCUUCAUUUUACAUAUUUACAGCUUUUCUCCGGAGGAGAUAAAAGAAUCUCAUGCUUAAAGUUACAUGUGGUCUUUGCCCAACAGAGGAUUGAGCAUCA | 0.349 ratio
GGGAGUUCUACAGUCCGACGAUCGGGUUCGGGGUAGAGGGAGGGAAGGGGACAGGACAGUGUGGAAUCUCUAGGGUGUAUGGAUAGUUAGGGGAUACAGUUAGUUCUAUGUGGGCCUUUAUGUUAAAACCACUGGGAGUGUCUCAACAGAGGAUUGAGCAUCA | 0.992 ratio
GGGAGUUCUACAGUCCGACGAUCUCUUCAUGGUGACACCUGGGCAGGUCUCUCAGCAUAUGAUAAUAGCCCAAGGUCGCCCUGUAGUCCAUCUCCUGUGACAUCACCACCCAGCCACAGUUCUUCCCACUCUGCCUGUCCUGUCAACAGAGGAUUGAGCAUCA | 0.72 ratio
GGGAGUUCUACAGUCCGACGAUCCUCAUUUCUAGGUUGGAUCUACCGGAAAAGUCAUCGGAAUUGACCACAUUAAAGAGCUAGUAGACGACUCAAUAAAUAAUGUCAGAAAGGAUGAUCCGAUGCUUUUGUCUUCAGGGAGAGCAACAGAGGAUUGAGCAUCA | 0.624 ratio
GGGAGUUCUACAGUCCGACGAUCGCACAUGCCGUUAUCACCAAAAGCAAACUAUCACUUUUCAAAUUUCAUUCUGAGCCGUUUUAGUGUUUCCUAUUCCCUACUCUUCCCACUACUUUCAAUGAUACAAUAUCCUGAGUUUUCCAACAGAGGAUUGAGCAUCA | 2.49 ratio
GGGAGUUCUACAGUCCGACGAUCUGACCCCCUCCCUGGUGAGAGGGAGUGGGGAGCUCAGGAUGACCCUCAGCUGUUCCAAUCCGGUAUUUUUUUUUCUUUUUCAAAAUUACUGUAUUUAUUAUGACGAUGGUGACUCCCCGGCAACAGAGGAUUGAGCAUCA | 0.729 ratio

Series 4 — method: RNA Bind-n-Seq; form: RNA; sample: in vitro; concentration: 365 nM; reference: no-protein control; direction: higher = stronger binding
Target: RNA binding protein fox-1 homolog 2, RRM domain, GST-SBP tag (RBFOX2, Homo sapiens, UniProt O43251-10, residues 100-194)
Notes: natural RNA segment, single round, ends assumed
Residues (chain): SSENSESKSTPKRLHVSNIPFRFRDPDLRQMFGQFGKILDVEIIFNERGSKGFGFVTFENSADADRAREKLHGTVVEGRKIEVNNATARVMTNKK
Strand | RBNS enrichment (R)
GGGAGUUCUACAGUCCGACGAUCGGGAUAGACAGACAGAGACCAGGUCUGGGACUAGAGCAUCUGCAGCUUCCGUGGGACAGAAGCUUUGGGUAGCUCUGAGUGACAGCUGCUUGUAUUCUCGGACCUGGACUUGGAAUUCUCGGGUGCCAA | 0.856
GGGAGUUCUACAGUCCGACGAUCAUUUUGAAUGAGAUCUACCGACUCACUUGUGAGAAUAUUUUUCACAGAUUAUCUUUGGGCCUUUUCAUUAGAAAGCUGUUUGUUUGUCCCCCUGUUGGUACAUUUGGUUAUGGAAUUCUCGGGUGCCAA | 1.12
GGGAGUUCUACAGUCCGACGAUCUCCAUCCUAGACCUGCCCCAGUGCCCAGCAGUCACCCUUCCCCUCUAGCUACAGAGUCCAGGCCACUGGACCAGCCAACAUCUGGGCUGCUGCAGGGAGGCCUGGCCUAUUGGAAUUCUCGGGUGCCAA | 0.593
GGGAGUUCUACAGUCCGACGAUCUAUUUGAUAGUUUGAGUCAUGGUCUUAGAUAUUAGCUAUUUGUGAGAGGAAACUGGUUUGUAACAAUACUGCAAAUAGAAACCCCAUUUCUACUGAACAUCCUAGUUUUAUGGAAUUCUCGGGUGCCAA | 0.438
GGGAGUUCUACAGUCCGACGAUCUUUCUGUGCUACGGAUUUACCAAAAAUUGUCAAGUCUUUUUCAGUUUAACAGUUCCUUUACAUGUGUAGUAUUUGAGGAAAAAAAUCAAUAAACAGUUGAUCUCGUGCAUUGGAAUUCUCGGGUGCCAA | 0.38
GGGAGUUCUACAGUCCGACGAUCUUUCUGUUCAGGGAUUAAGACCAGAAUAUCAGUGGAUUUGUUUUCCCCACCAAGUGGCCUCUUAGACUAGUCAUUAACUUAUGAUUAGCUCUAAAGAUUUCAAAUAGUGGUGGAAUUCUCGGGUGCCAA | 0.367
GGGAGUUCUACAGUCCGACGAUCAGCACAGAAACAGAGCAGAAAGUAGUACAAUCAUGUUGGACCUUCUUUCUGUUCUCUUUACUCUUCUCACAGAUCAGAUCACUCCAUAGAAGCCUGUGGGUUUCGAUGGUUGGAAUUCUCGGGUGCCAA | 0.244
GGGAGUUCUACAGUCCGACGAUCUUCCCUGGGGACCAGUGUCAGUGGCAGAGCCAGGGACACCCAUGCACAAGGAGGCAUGCUUGCCCUUCUCCUUGGGAUGGCAGCUGGUGAGCUGAGGAGGCUGGCCUAGAUGGAAUUCUCGGGUGCCAA | 5.46
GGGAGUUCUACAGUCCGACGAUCUGUGCAGAAAGACGCUGAAAGUGCAAAAUGUAUUGGGGAAUAACCUUGUUGAAUCACAAUAAUGGUGUUGGGCCAAAGCCACAUUUUUAUAAAGCCAAGUAAACACAAAUUGGAAUUCUCGGGUGCCAA | 0.784
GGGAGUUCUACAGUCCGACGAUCGAGUUCAAGCGUUGUCUUUUUAAGUUUAAAAAACUAUAAAGGGUUGUUUUUACUAGGUAGACUGGCAUCUGGGUAGAGGCUGCCUGGGAUUUUUAUCCCCACAUAACCAGUGGAAUUCUCGGGUGCCAA | 0.331
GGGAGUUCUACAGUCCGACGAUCUUGUUUAAAAACCAAAUAAGCAUCUGUGUAACCUCCACAGUAGCAUUUCUUAUUUGUUUGGUCACUGCUACACCUUAGCAGCUCUUCCCCUUUCCUGGGGGAUGUGCACGUGGAAUUCUCGGGUGCCAA | 0.543
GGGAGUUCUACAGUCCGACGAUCACAUCCCCAGACAAGGAUGGCACAAGAGGCCAAAUUUGAAGGCCUUGGGAGAGAAGCCAUUUCCCCUACCUCUAACGAGCGUAGUUUUCUGUCUGAAUGGCCCCCCUUUUUGGAAUUCUCGGGUGCCAA | 0.433

Series 5 — method: RNA Bind-n-Seq; form: RNA; sample: in vitro; concentration: 200 nM; notes: whole 134-nt RNA, ends assumed; added: 150 mM LiCl; reference: input library; direction: higher = stronger binding; library: 7-deaza-guanosine replaces G
Target: Ras GTPase-activating protein-binding protein 1, full length (G3BP1, Homo sapiens, UniProt Q13283)
UniProt Q13283, sequence (whole entry, looked up): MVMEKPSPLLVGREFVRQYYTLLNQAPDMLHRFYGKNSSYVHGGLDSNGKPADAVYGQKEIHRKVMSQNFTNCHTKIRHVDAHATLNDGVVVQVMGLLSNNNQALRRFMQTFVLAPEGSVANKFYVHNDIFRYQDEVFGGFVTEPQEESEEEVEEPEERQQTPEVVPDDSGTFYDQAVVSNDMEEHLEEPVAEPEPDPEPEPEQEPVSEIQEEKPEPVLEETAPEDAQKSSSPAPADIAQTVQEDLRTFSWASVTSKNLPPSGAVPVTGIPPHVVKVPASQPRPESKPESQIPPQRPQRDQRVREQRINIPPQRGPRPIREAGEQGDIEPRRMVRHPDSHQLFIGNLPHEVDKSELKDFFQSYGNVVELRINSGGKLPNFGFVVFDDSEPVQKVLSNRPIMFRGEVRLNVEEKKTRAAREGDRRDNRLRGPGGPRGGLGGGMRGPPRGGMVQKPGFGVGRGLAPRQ
Strand | log2 enrichment
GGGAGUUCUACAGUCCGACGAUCACCAUGCAGGUGGGCAUCUUUGGGAAGUGGGGCAAGGGCGGGAUAGGGAGGGGGGUAACACUUUGGGAACAGGUGGUCCCAGGUCGUUUCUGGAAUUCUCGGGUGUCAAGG | 0.2
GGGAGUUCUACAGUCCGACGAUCUGGGAGGUGGAUUUUGUUUAUUUUUUUAGCUCAUUUCCAGGGGUGGGAAUUUUUUUUUAAUAUGUGUCAUGAAAAAAGUUGUUUUUGAAAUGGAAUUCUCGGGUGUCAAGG | -0.306
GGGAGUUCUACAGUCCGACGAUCUGUGCUACACAUCGUAUGUACCGAAUCGGGGAAAAAAAGGAAAAAAAGGGGAAAAAAAGGGGAAAGUAUUAUGUUACGCCGUUCGGAUCUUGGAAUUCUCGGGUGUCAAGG | 0.397
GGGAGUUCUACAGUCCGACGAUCAGUCCUGUGCUACACAUCGUAUGUACCGAAUCAAAUUUAAAUUUAAAUUUUUUUAAAAAAGUAUUAUGUUACGCCGUUCGGAUCUGCACUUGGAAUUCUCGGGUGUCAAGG | -2.88
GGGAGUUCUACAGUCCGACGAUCGUCCUGUGCUACACAUCGUAUGUACCGAAUCGGGAGGGAAAAAAAGGGAAAAAAAGGGAAAGUAUUAUGUUACGCCGUUCGGAUCUGCACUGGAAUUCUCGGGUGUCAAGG | 0.371
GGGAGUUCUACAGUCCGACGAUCUGGCCCUGGUGGCAUGCGGGGAGGAAGAGGUGGCCUCAUGGAUCGUGGUGGUCCCGGUGGAAUGUUCAGAGGUGGCCGUGGUGGAGGCAGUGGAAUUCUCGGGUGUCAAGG | -0.286
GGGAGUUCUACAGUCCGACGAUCCUCAAGUCCUGUGCUACACAUCGUAUGUACCGAAUCGGUGGUUUGGUUUUUGGAAAGUAUUAUGUUACGCCGUUCGGAUCUGCACUUCCAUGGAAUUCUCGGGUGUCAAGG | 0.414
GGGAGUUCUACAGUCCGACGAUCAGUCCUGUGCUACACAUCGUAUGUACCGAAUCGGGGUUUUUGGGGAAAGGGGAGGGGAAAGUAUUAUGUUACGCCGUUCGGAUCUGCACUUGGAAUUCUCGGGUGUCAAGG | -0.122
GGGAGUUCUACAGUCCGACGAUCAAGUCCUGUGCUACACAUCGUAUGUACCGAAUCGGGAAAGGGGAAAGGGGAAAGGGAAAGUAUUAUGUUACGCCGUUCGGAUCUGCACUUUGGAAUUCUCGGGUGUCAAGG | 0.349
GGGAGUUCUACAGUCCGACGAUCGGGCCCUGGUGGCAUGCGGGGAGGAAGAGGUGGCCUCAUGGAUCGUGGUGGUCCCGGUGGAAUGUUCAGAGGUGGCCGUGGUGGAGACAGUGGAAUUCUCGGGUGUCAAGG | 0.32
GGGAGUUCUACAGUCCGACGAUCACCAUGCAGGUGGGCAUCUUUGGGAAGUGGGGCAAGGGGGGGAUAGGGAGGGGGGUAACCCUUUGGGAACAGGUGGUCCCAGGUCGUUUCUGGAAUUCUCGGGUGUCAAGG | 0.176
